Measured values from different studies.
Lines come from different studies, so protocols differ. ± marks the error that the study gave.
Target: Cannabinoid receptor 2 (CNR2, Homo sapiens, UniProt P34972)
Chain of UniProt P34972 (whole entry, looked up): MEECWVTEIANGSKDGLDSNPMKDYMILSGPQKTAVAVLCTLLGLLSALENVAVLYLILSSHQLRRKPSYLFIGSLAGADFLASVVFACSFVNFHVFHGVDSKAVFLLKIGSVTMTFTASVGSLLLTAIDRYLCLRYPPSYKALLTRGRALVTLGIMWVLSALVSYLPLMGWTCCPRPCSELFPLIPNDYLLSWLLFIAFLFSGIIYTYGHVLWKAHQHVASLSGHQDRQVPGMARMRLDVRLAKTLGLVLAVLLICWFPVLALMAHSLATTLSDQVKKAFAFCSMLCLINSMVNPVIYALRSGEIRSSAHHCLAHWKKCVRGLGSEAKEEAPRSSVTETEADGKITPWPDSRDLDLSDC

With `NC(=O)N1CCC[C@@H](CNC(=O)c2nn(Cc3ccc(F)cc3)c3ccccc23)C1` the Emax was 29 ± 10% (calcium mobilization, agonist; CHO-K1 expressing Gαq16; reference: CP55,940 maximum).
For `CC1(C)Oc2cc([C@]34CC5CC(C[C@@](N=C=S)(C5)C3)C4)cc(O)c2[C@@H]2C[C@H](O)CC[C@H]21`, the covalent labeling was 25% (radioligand binding Bmax reduction; HEK293 membranes; 10-fold Ki, added: [3H]CP-55,940; reference: untreated).
`C[C@H]1CC[C@@H](NC(=O)c2cc3cc(-c4ccco4)cnc3n(Cc3ccc(F)cc3)c2=O)CC1` gave an affinity ratio of 349 fold ([3H]CP-55,940 displacement; reference: cis over trans isomer).
`CC1(Cc2ccccc2)COc2cc(C(=O)N3CCOCC3)ccc21` (stereo not shown) gave an Emax of 93% (GTPγS binding, agonist, radiometric).
`C[C@H]1CC[C@@H](NC(=O)c2cc3cc(Br)cnc3n(Cc3ccc(F)cc3)c2=O)CC1` has an affinity ratio of 9 fold ([3H]CP-55,940 displacement; reference: cis over trans isomer).
The Emax of `CC1(Cc2ccccc2)COc2cc(C(=O)NC3CCCCC3)ccc21` (stereo not shown) is reported as 54.3% (GTPγS binding, agonist, radiometric).
`CC(C)(NC(=O)c1nn(Cc2ccc(F)cc2F)c2ccccc12)c1cccc(C(N)=O)c1` gave an Emax of ~17% (calcium mobilization, agonist; CHO-K1 expressing Gαq16; reference: CP55,940 maximum).
`CC1(Cc2ccccc2)COc2cc(C(=O)NCC3CCOCC3)ccc21` (stereo not shown) has an Emax of 49% (GTPγS binding, agonist, radiometric).
For `CC1(C)Oc2cc([C@]34CC5CC(C[C@@](N=[N+]=[N-])(C5)C3)C4)cc(O)c2[C@@H]2C[C@H](O)CC[C@H]21`, the covalent labeling was 26% (radioligand binding Bmax reduction; HEK293 membranes; 10-fold Ki, added: [3H]CP-55,940; reference: untreated).
`CC(C)(NC(=O)c1nn(Cc2ccc(F)cc2)c2ccccc12)C1CCN(C(N)=O)CC1` gave an Emax of 59 ± 2% (calcium mobilization, agonist; CHO-K1 expressing Gαq16; reference: CP55,940 maximum).
